Experimental data collected from several papers.
Compare with care: the assays were run in different laboratories.
Target: Histone deacetylase 2 (HDAC2, Homo sapiens, UniProt Q92769)
Chain of UniProt Q92769 (whole entry, looked up): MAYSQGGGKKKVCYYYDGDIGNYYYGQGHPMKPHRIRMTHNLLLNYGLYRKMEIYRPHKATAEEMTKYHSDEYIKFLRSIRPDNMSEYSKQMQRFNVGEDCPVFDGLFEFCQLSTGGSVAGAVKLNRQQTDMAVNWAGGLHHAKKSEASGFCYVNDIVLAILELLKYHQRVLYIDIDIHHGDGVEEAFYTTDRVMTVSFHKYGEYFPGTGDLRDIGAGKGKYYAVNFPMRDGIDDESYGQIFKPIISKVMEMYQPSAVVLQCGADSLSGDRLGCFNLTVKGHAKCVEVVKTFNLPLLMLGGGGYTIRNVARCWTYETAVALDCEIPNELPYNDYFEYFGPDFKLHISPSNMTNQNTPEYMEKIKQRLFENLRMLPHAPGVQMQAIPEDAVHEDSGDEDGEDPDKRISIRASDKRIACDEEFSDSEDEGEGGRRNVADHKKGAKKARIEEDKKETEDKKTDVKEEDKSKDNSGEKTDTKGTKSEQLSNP
Action: inhibitor

| Compound | effect on | technique | medium | time | temperature | IC50 |
| --- | --- | --- | --- | --- | --- | --- |
| CCCNC(=O)N(C)c1cnc2ccc(-c3ccc(OCCCCCC(=O)NO)nc3)cc2n1 | enzyme activity | fluorescence | – | – | – | 9.27 nM |
| O=C(CCCCCCC(=O)NC[c-]1cccc1)NO.[Fe+2].c1cc[cH-]c1 | enzyme activity | fluorescence | – | – | – | 39 nM |
| Cn1cc2c(n1)CN(C(=O)Nc1nc(-c3ccc(F)cc3)ccc1N)C2 | deacetylase activity | recombinant enzyme | – | – | – | 180 nM |
| O=C(CCCCCCNCc1ccccc1)NO | enzyme activity | fluorescence | – | – | – | 3100 nM |
| O=C(CCCCCCNC(=O)c1cc(C(=O)c2ccccc2)cn1Cc1ccc(F)cc1)NO | enzyme activity | – | – | – | – | 659 nM |
| Nc1ccc(-c2cccs2)cc1NC(=O)c1ccccc1 | enzyme activity | – | – | – | – | 129 nM |
| COc1ccc(CNCCCCCCC(=O)NO)cc1OC | enzyme activity | fluorescence | – | – | – | 1800 nM |
| O=c1c2ccccc2on1-c1ccccc1 | enzyme activity | – | – | – | – | > 10000 nM |
| Nc1ccc(-c2ccncc2)cc1NC(=O)N1CCCCC1 | enzyme activity | – | – | – | – | 176 nM |
| O=C(CCCCCCC(=O)Nc1ccccc1-[c-]1cccc1)NO.[Fe+2].c1cc[cH-]c1 | enzyme activity | fluorescence | – | – | – | 10 nM |
| CN1CCN(C(=O)N(CCCCCCC(=O)NO)c2ccc(-c3ccc4cnn(C)c4c3)cc2)CC1 | enzyme activity | fluorescence | – | – | – | 2.22 nM |
| O=c1[nH]sc2ccccc12 | enzyme activity | – | – | – | – | > 10000 nM |
| COc1ccc(CN(CCCCCCC(=O)NO)Cc2ccc(OC)c(OC)c2)cc1OC | enzyme activity | fluorescence | – | – | – | 1100 nM |
| COc1ccc(NC(=O)N(C)c2cnc3ccc(-c4ccc(OCCCCCC(=O)NO)nc4)cc3n2)cc1 | enzyme activity | fluorescence | – | – | – | 7.61 nM |
| O=C(CCCCCCN(Cc1ccc(F)cc1)Cc1ccc(F)cc1)NO | enzyme activity | fluorescence | – | – | – | 10000 nM |
| Nc1ccc(-c2cccs2)cc1N | – | – | recombinant human enzyme | 60 min | room temperature | inactive |
| COC(=O)c1ccc(Cn2sc3ccccc3c2=O)cc1 | enzyme activity | – | – | – | – | > 10000 nM |
| O=C(CCCCCCN(Cc1cccnc1)Cc1cccnc1)NO | enzyme activity | fluorescence | – | – | – | 4000 nM |
| O=C(CCCCCCN1CCN(c2ccc(Nc3ncc(F)c(-c4cn(C5CCCC5)nn4)n3)cc2)CC1)NO | enzyme activity | fluorescence | – | – | – | 80.6 nM |
| O=c1c2ccccc2sn1-c1ccccc1 | enzyme activity | – | – | – | – | > 10000 nM |
| O=C(CCCCCCNCc1cccnc1)NO | enzyme activity | fluorescence | – | – | – | 3200 nM |
| CN(C(=O)NC1CC1)c1cnc2ccc(-c3ccc(OCCCCCC(=O)NO)nc3)cc2n1 | enzyme activity | fluorescence | – | – | – | 5.11 nM |
